Measured values pooled from the literature.
Lines come from different studies, so protocols differ.
Target: Amine oxidase [flavin-containing] A (MAOA, Homo sapiens, UniProt P21397)
UniProt P21397, sequence (whole entry, looked up): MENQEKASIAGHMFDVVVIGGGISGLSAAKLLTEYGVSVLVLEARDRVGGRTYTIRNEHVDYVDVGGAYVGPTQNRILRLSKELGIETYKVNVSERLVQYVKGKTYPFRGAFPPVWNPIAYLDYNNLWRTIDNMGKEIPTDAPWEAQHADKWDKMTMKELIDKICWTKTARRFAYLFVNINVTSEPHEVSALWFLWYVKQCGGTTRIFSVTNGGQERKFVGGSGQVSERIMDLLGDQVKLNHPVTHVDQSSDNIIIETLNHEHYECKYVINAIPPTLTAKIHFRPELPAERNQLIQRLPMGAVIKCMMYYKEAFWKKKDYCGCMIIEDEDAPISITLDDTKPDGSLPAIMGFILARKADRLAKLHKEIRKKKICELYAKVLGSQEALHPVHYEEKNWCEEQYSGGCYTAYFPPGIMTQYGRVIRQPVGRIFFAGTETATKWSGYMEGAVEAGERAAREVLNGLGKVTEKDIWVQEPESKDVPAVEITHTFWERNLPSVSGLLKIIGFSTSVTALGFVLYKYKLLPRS
Mode: inhibitor

For `COc1cc(C)cc(C2NC(=O)c3c(O)cc(O)cc32)c1OC` (racemic), the IC50 was 75.4 µM (enzyme activity, fluorescence; pH 7.4).
With `COc1cc(OC2OC(COC3OC(CO)C(O)C(OC4OC(CO)C(O)C(O)C4O)C3O)C(O)C(O)C2O)c2c(O)c3c(=O)cc(C)oc3cc2c1` (stereo not drawn) the IC50 was 82.2 µM (enzyme activity).
For `Cc1ccc(C(=O)/C=C/c2ccc3c(c2)OCCO3)o1`, the IC50 was over 40 µM (enzyme activity, fluorescence).
The IC50 of `O=C1Nc2ccc(Br)cc2/C1=N/N=C/c1ccc(OCc2ccccc2)cc1` is reported as over 40 µM (enzyme activity, fluorescence).
With `O=C(/C=C/c1ccc2c(c1)OCO2)c1ccc(Br)s1` the IC50 was over 40 µM (enzyme activity, fluorescence).
For `COc1c(OC2OC(CO)C(O)C(O)C2O)c(C)cc2c1C(=O)c1c(O)cccc1C2=O` (stereo not drawn), the IC50 was over 400 µM (enzyme activity).
`COc1cc(C)cc(C2(O)NC(=O)c3c(OCc4ccccc4)cc(OCc4ccccc4)cc32)c1OC` (racemic) gave an IC50 of over 100 µM (20 min, pH 7.4, 37 °C, added: kynuramine 30 µM).
For `O=C(/C=C/c1ccc2c(c1)OCCO2)c1cccs1`, the IC50 was over 40 µM (enzyme activity, fluorescence).
`O=C1Nc2ccc(Cl)cc2/C1=N/N=C/c1ccc(OCc2cccc(F)c2)cc1` has an IC50 of over 40 µM (enzyme activity, fluorescence).
For `COc1cc(/C=C/COC(=O)/C=C/c2ccc(O)c(OC)c2)ccc1O`, the IC50 was 102 µM (enzyme activity, fluorescence).
With `COc1cc(C)cc(C2NC(=O)c3c(OC)cc(O)cc32)c1O` (racemic) the IC50 was 100 µM (enzyme activity, fluorescence; pH 7.4).
With `Cc1ccc2c(c1)/C(=N/N=C/c1ccc(OCc3cccc(F)c3)cc1)C(=O)N2` the IC50 was over 40 µM (enzyme activity, fluorescence).
`COc1cc(OC2OC(CO)C(O)C(O)C2O)c2c(OC)c(C(C)=O)c(OC3OCC(O)(CO)C3O)cc2c1` (stereo not drawn) has an IC50 of 96.2 µM (enzyme activity).
For `O=C(/C=C/c1ccc2c(c1)OCCO2)c1ccco1`, the IC50 was over 40 µM (enzyme activity, fluorescence).
With `COc1cc(OC2OC(COC3OC(CO)C(O)C(O)C3O)C(O)C(O)C2O)c2c(O)c3c(=O)cc(C)oc3cc2c1` (stereo not drawn) the IC50 was over 100 µM (enzyme activity).
For `COc1cc(OC)c2c(c1)C(OC)(c1cc(C)cc(OC)c1OC)OC2=O` (racemic), the IC50 was 38.5 µM (enzyme activity, fluorescence; pH 7.4).
`COc1ccc2c(c1)/C(=N/N=C/c1cccc(OCc3ccccc3)c1)C(=O)N2` gave an IC50 of 11.1 µM (enzyme activity, fluorescence).
The IC50 of `Cc1cc(O)c2c(c1)C(=O)c1cc(O)c(O)c(O)c1C2=O` is reported as 5.35 µM (enzyme activity).
The IC50 of `CCC/C=C1\OC(=O)C2=C1CCC=C2` is reported as 6.06 µM (enzyme activity, fluorescence).
For `COc1cc(C)cc(C2(O)NC(=O)c3c(OC)cc(OCc4ccccc4)cc32)c1OCc1ccccc1` (racemic), the IC50 was 22.2 µM (enzyme activity, fluorescence; pH 7.4).
For `COc1c(OC2OC(CO)C(O)C(O)C2O)cc2c(c1O)C(=O)c1c(cc(C)c(O)c1OC)C2=O` (stereo not drawn), the IC50 was 39.6 µM (enzyme activity).
`COc1cc(O)c2c(c1)C(c1cc(C)cc(OC)c1OC)NC2=O` (racemic) has an IC50 of 17.8 µM (enzyme activity, fluorescence; pH 7.4).
For `O=C1Nc2ccc(Cl)cc2/C1=N/N=C/c1ccc(OCc2ccccc2)cc1`, the IC50 was over 40 µM (enzyme activity, fluorescence).
With `Cc1cc(=O)c2c(O)c3c(OC4OC(CO)C(O)C(O)C4O)cccc3cc2o1` (stereo not drawn) the IC50 was 11.3 µM (enzyme activity).
With `CCC/C=C1\OC(=O)c2ccccc21` the IC50 was 97 µM (enzyme activity, fluorescence).
`Cc1ccc2c(c1)/C(=N/N=C/c1cccc(OCc3ccccc3)c1)C(=O)N2` gave an IC50 of 14.4 µM (enzyme activity, fluorescence).
The IC50 of `CCC/C=C1\OC(=O)C2=C1CC[C@@H](O)[C@H]2O` is reported as 108 µM (enzyme activity, fluorescence).
`O=C(/C=C/c1ccc2c(c1)OCCO2)c1ccc[nH]1` gave an IC50 of over 40 µM (enzyme activity, fluorescence).
With `O=C1Nc2ccc(Br)cc2/C1=N/N=C/c1cccc(OCc2ccccc2)c1` the IC50 was over 40 µM (enzyme activity, fluorescence).
With `CCCC[C@@H]1OC(=O)C2=C1CCC=C2` the IC50 was 47.6 µM (enzyme activity, fluorescence).

Some of these lines once more:
With `O=C(/C=C/c1ccc2c(c1)OCO2)c1ccc(Br)s1` the IC50 was over 40 µM (enzyme activity, fluorescence).
For `COc1c(OC2OC(CO)C(O)C(O)C2O)c(C)cc2c1C(=O)c1c(O)cccc1C2=O` (stereo not drawn), the IC50 was over 400 µM (enzyme activity).
`COc1cc(C)cc(C2(O)NC(=O)c3c(OCc4ccccc4)cc(OCc4ccccc4)cc32)c1OC` (racemic) gave an IC50 of over 100 µM (20 min, pH 7.4, 37 °C, added: kynuramine 30 µM).
For `O=C(/C=C/c1ccc2c(c1)OCCO2)c1cccs1`, the IC50 was over 40 µM (enzyme activity, fluorescence).
